Results of several laboratories.
Lines come from different studies, so protocols differ. “And” joins repeats or separate records; there may be more than shown. ± marks the error that the study gave.

| Structure (SMILES) | test | system | conditions | scale | endpoint | result |
| --- | --- | --- | --- | --- | --- | --- |
| C[Si]1(C[C@@H](CN)CC(=O)O)CCCC1 |  | Sprague-Dawley rat, male, brain | oral, 30 mg/kg, estimated as Cmax x Kp |  | brain Cmax | 2800 nM |
| CCC/C(=C\C1=C(OC)C(=O)c2ccccc2C1=O)C(=O)NOC |  | mouse, plasma | oral, 25 mg/kg |  | AUC(0-inf) | 6100 ng·h/mL |
| C[C@H](NC(=O)COC(=O)[C@H](C)NC(=O)CO)C(=O)O |  | water | pH 5, 25 °C |  | depolymerization half-life | 43.2 h |
| CC[C@H](C)[C@H](NC(=O)[C@H](CC(C)C)NC(=O)[C@H](Cc1c[nH]c2ccccc12)NC(=O)[C@H](C)NC(=O)[C@@H](NC(=O)[C@H](Cc1ccccc1)NC(=O)[C@H](CC(=O)O)NC(=O)[C@H](CCCNC(=N)N)NC(=O)[C@H](C)NC(=O)[C@H](C)NC(=O)[C@H](CC(C)C)NC(=O)[C@H](C)NC(=O)[C@H](CC(=O)O)NC(=O)[C@H](CC(C)C)NC(=O)[C@@H](NC(=O)[C@@H](NC(=O)[C@H](C)NC(=O)[C@H](CC(C)C)NC(=O)[C@H](CCC(=O)O)NC(=O)[C@H](CO)NC(=O)[C@H](CO)NC(=O)[C@H](Cc1ccccc1)NC(=O)[C@@H](NC(=O)CNC(=O)[C@H](CCC(=O)O)NC(=O)CNC(=O)[C@@H](N)Cc1cnc[nH]1)[C@@H](C)O)[C@@H](C)O)[C@@H](C)CC)[C@@H](C)CC)C(=O)N[C@@H](C)C(=O)N[C@H](C(=O)N[C@@H](CCCCN)C(=O)N[C@H](C(=O)N[C@H](C(=O)N[C@@H](CC(=O)O)C(=O)N[C@@H](CCCCN)C(=O)N[C@@H](CCCCN)C(=O)N[C@@H](CCCCN)C(=O)N[C@@H](CCCCN)C(=O)N[C@@H](CCCCN)C(=O)N[C@@H](CCCCN)C(N)=O)[C@@H](C)O)[C@@H](C)CC)[C@@H](C)O | immunoaffinity LC-MS/MS | healthy human subjects, plasma | intravenous infusion, 1 mg, 15 min infusion |  | AUC(0-last) | 0.0408 µM·h |
| O=C(Cc1ccc2ccccc2c1)N[C@H](Cc1ccc(O)cc1)C(=O)N[C@H](Cc1ccccc1)C(=O)N[C@H](Cc1ccccc1)C(=O)N[C@H](Cc1ccc(OP(=O)(O)O)cc1)C(=O)O | substrate, rheology | hydrogel | 0.5 wt%, added: alkaline phosphatase 0.05 U/mL |  | gelation time | 0.3 h |
| O=C(NCCCN(CCCCN(CCCNC(=O)c1cccc(=O)n1[O-])C(=O)c1cccc(=O)n1[O-])C(=O)c1cccc(=O)n1[O-])c1cccc(=O)n1[O-].[89Zr+4] | radio-TLC | PBS | 1 h, pH 7.4, 37 °C, added: K^+ 10-fold excess |  | intact complex | 99 ± 1.5% |
| COCCOCCOCCOCCC(=O)NCc1cc(CNC(=O)CCOCCOCCOCCOC)cc(-c2cc3cc4nc(c(-c5ccc(CCC(=O)O)cc5)c5[nH]c(cc6nc(c(OC)c2[nH]3)CC6(C)C)cc5-c2cc(CNC(=O)CCOCCOCCOCCOC)cc(CNC(=O)CCOCCOCCOCCOC)c2)CC4(C)C)c1 |  | DMF | room temperature |  | kic^−1 | 9 ns |
| COc1ccc(-c2csc(N/N=C(\C)c3cc(O)cc(O)c3)n2)cc1 | LC-MS/MS | rat plasma | 1000 ng/mL, 45 days, long-term storage at -70 °C |  | concentration after storage | 965 ng/mL |
| CCCCCCCCCCCCCCCC(=O)OCC(CSC[C@H](N)C(=O)NCC(=O)N[C@@H](CC(=O)O)C(=O)N1CCC[C@H]1C(=O)N[C@@H](CCCCN)C(=O)N[C@@H](Cc1c[nH]cn1)C(=O)N1CCC[C@H]1C(=O)N[C@@H](CCCCN)C(=O)N[C@@H](CO)C(=O)N[C@@H](Cc1ccccc1)C(=O)O)OC(=O)CCCCCCCCCCCCCCC (stereo partly shown) | LC-MS/MS | rhesus monkey, non-irradiated, plasma | subcutaneous, 0.09 mg/kg single dose |  | Cmax | 116 ng/mL |
| CC(=O)N[C@@H](Cc1cnc[nH]1)C(=O)N[C@H](Cc1ccccc1)C(=O)N[C@@H](CCCNC(=N)N)C(=O)N[C@@H](Cc1c[nH]c2ccccc12)C(=O)NCCCOCCOCCOCCCNC(=O)COCC(=O)N[C@@H](Cc1cnc[nH]1)C(=O)N[C@H](Cc1ccccc1)C(=O)N[C@@H](CCCNC(=N)N)C(=O)N[C@@H](Cc1c[nH]c2ccccc12)C(N)=O |  | male mice | intracerebroventricular, 5 nmol, fasting-refeeding |  | ambulatory activity | no effect |
| COc1ccc(C=NCCCN(C)CCN(C)CCCN=Cc2ccc(OC)cc2[O-])c([O-])c1.[67Ga+3] |  | rat | intravenous, 2 h | relative to: heart over blood | tissue uptake ratio | 23.3 ± 2.7 |
| CCc1cc(Nc2nc(-c3ccc(-n4cnc(C)c4)c(F)c3)cs2)c(C)cc1C |  | human, both sexes, plasma | oral, 100 mg, day 1, multiple dose, geometric mean |  | AUC(0-last) | 1760 ng·h/mL |
| CCCC[C@H](NC(C)=O)C(=O)N[C@H]1CC(=O)NCCCC[C@@H](C(=O)N[C@@H](C(=O)N2CCC[C@@H]2C(N)=O)C(C)C)NC(=O)[C@H](Cc2c[nH]c3ccccc23)NC(=O)[C@H](CCCN=C(N)N)NC(=O)[C@@H](Cc2ccc3ccccc3c2)NC(=O)[C@@H]2CCCN2C1=O |  | healthy dogs, plasma | subcutaneous, 2.25 mg/kg per day, day 1, 24 h post-dose, median |  | plasma histamine | 9.4 ng/mL |
| CC(C)c1cnc(-c2cc(Cl)ccc2F)cc1Nc1ccncc1C(=O)NC(CO)CO | item: any event, worst grade | human patients | oral, dose not given, grade 2 |  | patients with related SAE | 0% |
| OCc1cn(Cc2ccc(-c3noc(-c4ccc(OCC[18F])c(C(F)(F)F)c4)n3)cc2)nn1 |  | Lewis rat female, brain stem | intravenous, 5 min |  | brain uptake | 0.5 %ID/g |
| CC(C)CCCC(C)CCCC(C)CCOC1O[C@H](CO)[C@@H](O)[C@H](O)[C@@H]1O (stereo partly shown) | drop shape analysis | water/n-octane | solubility limit, 100 s, room temperature |  | interfacial tension | 4.2 mN/m |

| Structure (SMILES) | test | system | conditions | scale | endpoint | result |
| --- | --- | --- | --- | --- | --- | --- |
| NC(=O)[C@@H](Cc1ccccc1)N[11C](=O)OCc1ccccc1 |  | male Wistar rats, plasma | intravenous, 15 min |  | intact tracer | 49.2% and 49% |
| CC(C)C[C@@H](N)C(=O)N[C@H](CC(=O)O)C(=O)N[C@@H](C(=O)N[C@H](Cc1ccccc1)C(=O)N[C@H](CC(C)C)C(=O)N[C@H](Cc1ccc(O)cc1)C(=O)N[C@H](CO)C(=O)N[C@H](CCC(=O)O)C(=O)O)C(C)C |  | 4T1 and MC-38 tumour mice | dose not given |  | ALT level | no effect |
| Cc1ccc(OCC(=O)N(Cc2cccs2)c2ccn[nH]2)cc1 |  | beagle dog, male, plasma | oral gavage, 30 mg/kg |  | dose-normalised AUC(0-last) | 7.42 ng·h/mL/mg/kg |
| CN(CCCN=Cc1ccccc1[O-])CCN(C)CCCN=Cc1ccccc1[O-].[67Ga+3] |  | rat | intravenous, 2 h | relative to: heart over liver | tissue uptake ratio | 10.9 ± 2.2 |
| CC(C)[C@H](NC(=O)[C@@H]1CCCN1C(=O)[C@H](CCCNC(=N)N)NC(=O)[C@H](CS)NC(=O)[C@H](Cc1c[nH]c2ccccc12)NC(=O)[C@H](CCCNC(=N)N)NC(=O)[C@@H](Cc1ccccc1)NC(=O)[C@H](Cc1c[nH]cn1)NC(=O)[C@H](CCC(=O)O)NC(=O)[C@H](CS)NC(=O)[C@H](CS)NC(=O)[C@@H]1CC(=O)N[C@@H](CCCNC(=N)N)C(=O)NCC(=O)N[C@@H](CC(=O)O)C(=O)N[C@H](Cc2ccc(O)cc2)C(=O)N1)C(N)=O [technetium-99m labelled] |  | C57 mouse, female, B16/F1 melanoma | intravenous, 0.037 MBq, 24 h | relative to: tumour over liver | tumour to tissue ratio | 8.83 |
| CC(C)(O)c1ncc([S@](N)(=O)=NC(=O)Nc2c3c(cc4c2CCC4)CCC3)s1 |  | healthy human, fasted | oral, 100 mg single dose, spray-dried dispersion |  | half-life | 9.9 h |
| CC(C)[C@H](NC(=O)CNC(=O)[C@H](CCC(N)=O)NC(=O)[C@H](C)N)C(=O)O | LC-MS/MS | human, male, plasma | intravenous, 30 mg/kg three times daily, day 2, first dose, 10 min infusion, geometric mean |  | Cmax | 4810 ng/mL |
| CCN(CC)c1ccc2c(-c3ccccc3C(=O)OCCOCCOCC[18F])c3ccc(=[N+](CC)CC)cc-3oc2c1 |  | rat, skin | 60 min |  | tissue uptake | 0.24 ± 0.03 %ID/g |
| NC12CNCCNCC(NCc3ccc(CNC(=O)CCCC(=O)NCc4ccc(-c5nncnn5)cc4)cc3)(CNCCNC1)CNCCNC2.[64Cu+2] | OLINDA dosimetry | skin | 24 h pretargeting interval, added: huA33-TCO pretargeting |  | mean absorbed dose | 0.0298 rad/mCi |
| OC1(C(F)(F)F)CCN(c2nc(Nc3ccnc(C(F)(F)F)c3)nc(-c3cccc(C(F)(F)F)n3)n2)C1 (stereo not shown) |  | Sprague-Dawley rat | oral, up to 50 mg/kg, single dose |  | respiratory effect | no effect |
| Cn1c(=O)oc2ccc(-c3ccc(CC(C#N)NC(=O)C4CNCCCO4)c(F)c3)cc21 (stereo not shown) |  | human, plasma | 80 mg, single dose, fasted, mean |  | half-life | 18.1 h |
| CN[C@@H]1[C@H](O)[C@H](NC)[C@H]2O[C@]3(O)[C@H](O[C@@H]2[C@H]1O)O[C@H](C)C[C@@]3(O)CNCCc1nccs1 |  | male BALB/c mouse, plasma | intravenous, 10 mg/kg |  | C0 | 19300 ng/mL |
| Oc1ccc2ccccc2c1/N=N/c1ccccc1 |  | extracted rat blood QC samples | 0.5 µg/L, 2 h, room temperature, short-term stability |  | measured concentration | 0.491 µg/L |
| C[Si]1(C)CNC(=O)c2ccccc21 |  | Sprague-Dawley rat, male, plasma | oral, 5 mg/kg |  | AUC(0-t) | 3170 ± 712 ng·h/mL |
| O=C(CCc1ccc(CNC(C(=O)OC2CCCC2)C2CCCCC2)cn1)NO (stereo not shown) |  | human, plasma | oral, 40 mg once daily, day 1, median |  | Tmax | 0.625 h |

Repeated from above:
| Structure (SMILES) | test | system | conditions | scale | endpoint | result |
| --- | --- | --- | --- | --- | --- | --- |
| CC(C)C[C@@H](N)C(=O)N[C@H](CC(=O)O)C(=O)N[C@@H](C(=O)N[C@H](Cc1ccccc1)C(=O)N[C@H](CC(C)C)C(=O)N[C@H](Cc1ccc(O)cc1)C(=O)N[C@H](CO)C(=O)N[C@H](CCC(=O)O)C(=O)O)C(C)C |  | 4T1 and MC-38 tumour mice | dose not given |  | ALT level | no effect |
| CN(CCCN=Cc1ccccc1[O-])CCN(C)CCCN=Cc1ccccc1[O-].[67Ga+3] |  | rat | intravenous, 2 h | relative to: heart over liver | tissue uptake ratio | 10.9 ± 2.2 |
| NC12CNCCNCC(NCc3ccc(CNC(=O)CCCC(=O)NCc4ccc(-c5nncnn5)cc4)cc3)(CNCCNC1)CNCCNC2.[64Cu+2] | OLINDA dosimetry | skin | 24 h pretargeting interval, added: huA33-TCO pretargeting |  | mean absorbed dose | 0.0298 rad/mCi |
